Published values from different studies.
± gives the spread as reported.

SMILES	cell line	test	conditions	how to read	endpoint	value
O=C1Nc2ccc(Cl)cc2C1=Cc1c(Cl)[nH]c2c1ccc1ccccc12	breast cancer subpanel of NCI-60	–	48 h	–	TGI	5.62 µM
CO[C@H]1N(OC)c2ccccc2[C@@]12CN=C(Nc1cc(C(F)(F)F)cc(C(F)(F)F)c1)S2 (relative stereo)	HCT-116	annexin V/PI flow cytometry	40 µM, 72 h	–	viable cells	36 ± 14.1%
CC(Cc1ccc(Cl)cc1)=C(c1ccc(Cl)cc1)c1ccc(OCCN(C)C)cc1	IGROV-1	cell growth or viability	–	–	GI50	3.73 µM
CN1CCN(C(=O)N(CCCCCCC(=O)NO)c2ccc(-c3ccc4cnn(C)c4c3)cc2)CC1	MM1.S	immunoblot, item: DACT3	300 nM, 24 h	–	protein level	increased
COc1cc(CNC(=O)C[C@H](C)CCC=C(C)C)ccc1OCc1cn(-c2ccccc2F)nn1	SF-539 CNS cancer cells	SRB	10 µM, 48 h	–	growth percent	44.6%
COc1ccc([C@@H]2CC(=O)c3c(O)cc(O[C@@H]4O[C@H](CO[C@@H]5O[C@@H](C)[C@H](O)[C@@H](O)[C@H]5O)[C@@H](O[C@H]5O[C@H](CO)[C@@H](O)[C@H](O)[C@H]5O)[C@H](O)[C@H]4O)cc3O2)cc1O	A549	cell migration, scratch	50 µg/mL, 48 h	–	gap closure	7.3 ± 1.57%
O=C(Nc1ccc(C(F)(F)F)cc1Cl)c1cc(Cl)ccc1O	C4-2B MDVR cells	total cell number	0.5 µM, 5 days	–	cell growth	decreased
CC(=O)Oc1ccccc1C(=O)[O][Pt]([NH2])([NH2])([Cl])([Cl])[O]C(=O)C(Cl)Cl	C13 and 2008	cytotoxicity, MTT	–	baseline: IC50 C13 over IC50 2008	resistance factor	2.7
C[N+]1(CC(=O)OC2CCCCCCCCCCC2)CCCCC1	LNCaP expressing AR-V7	cell viability, CellTiter Blue	96 h	–	ED70	8.9 µM
N#Cc1cccc(-c2ccc(=O)n(Cc3cccc(-c4ncc(OCC5CCN(CC(=O)N6CCN(c7ccc8c(c7)C(=O)N(C7CCC(=O)NC7=O)C8=O)CC6)CC5)cn4)c3)n2)c1 (stereo not drawn)	EBC-1	annexin V flow cytometry	100 nM, 48 h	–	apoptotic cells	68%
CC(=O)OC[C@H]1O[C@@H](Sc2sc(C(=O)c3ccc(C)cc3)c(N)c2-c2nc3ccccc3s2)[C@H](OC(C)=O)[C@@H](OC(C)=O)[C@H]1OC(C)=O	IGROV-1	SRB	10 µM, 48 h	baseline: untreated	growth	58.4%
COc1cc(CNC(=O)C[C@H](C)CCC=C(C)C)ccc1OCc1cn(-c2ccc([N+](=O)[O-])cc2)nn1	U-251 CNS cancer cells	SRB	10 µM, 48 h	–	growth percent	82.8%
COc1cc(C(=O)c2[nH]c(N)nc2-c2cccs2)cc(OC)c1OC	HeLa cells	western blot	120 nM, 24 h	baseline: polymeric over soluble tubulin	polymeric to soluble tubulin ratio	1.6 ± 0.1
COc1ccc([C@@H]2CC(=O)c3c(O)cc(O[C@@H]4O[C@H](CO[C@@H]5O[C@@H](C)[C@H](O)[C@@H](O)[C@H]5O)[C@@H](O)[C@H](O)[C@H]4O)cc3O2)cc1O	A549	Matrigel Transwell invasion	100 µg/mL, 24 h	–	invasion	47.1 ± 5.6%
NC(=O)[C@@H](O)C[C@H]1CCc2sc3ncnc(O[C@H]4CC[C@H](N5CCOCC5)CC4)c3c21	GCB DLBCL lines, wild-type MYD88	–	concentration not given, 4 d	–	viability	no effect
CC/C=C\C/C=C\C/C=C\C/C=C\C/C=C\C/C=C\CCC(=O)Nc1ccn(C2OC(CO)C(O)C2(F)F)c(=O)n1 (stereo not drawn)	SF-539	cell growth or viability, SRB	–	–	GI50	0.0287 µM
COc1cc(O)cc2c1-c1ccc(O)c(OC)c1CC2	BV-2	ELISA, item: TNF-α	concentration not given, pretreatment, added: LPS	–	cytokine release	decreased
CN1CCCNC(=O)c2cccc(c2)C(=O)NCCCN(C)CCCNc2cccc3c2C(=O)c2cccc(c2C3=O)NCCC1	SAS	RNA-Seq	5 µM, 6 h	–	downregulated Wnt/β-catenin pathway genes	9 genes
CCN(CC)CCNC(=S)Nc1ccc2nc(N3CCN(CC)CC3)cc(C)c2c1	BCR-ABL1+ BRCA1-deficient 32Dcl3	item: GFP-RAD52 foci	2.5 µM, added: cisplatin	–	foci-positive cells	17 ± 1%
CC(=O)OC[C@H]1O[C@@H](Sc2sc(C(=O)c3ccc(Br)cc3)c(N)c2-c2nc3ccccc3s2)[C@H](OC(C)=O)[C@@H](OC(C)=O)[C@H]1OC(C)=O	IGROV-1	SRB	10 µM, 48 h	baseline: untreated	growth	68.8%

SMILES	cell line	test	conditions	how to read	endpoint	value
O=C(Nc1ccccc1)c1ccc(Nc2nnc(-c3ccc(O)cc3)c3ccccc23)cc1	rat cortical neurons	inhibitor	dose not given, added: [3H]-anandamide	–	anandamide uptake	inhibited
COc1ccc(NC(=O)CCc2nc3cc(Cl)ccc3[nH]c2=O)cc1	unspecified cells	–	concentration not given, unit not given	baseline: untreated control	BCL2 level	0.45
CCc1noc(CC)c1C(=O)O[C@H]1C(C)=C[C@]23C(=O)[C@@H](C=C(CO)[C@@H](O)[C@]12O)[C@H]1[C@@H](C[C@H]3C)C1(C)C	human primary epidermal keratinocytes	CyQUANT DNA content	72 h	–	complete growth arrest concentration	~100 nM
C/C(=N\N=C1/NC(=O)CS1)c1ccccn1	Vero	cell growth or viability, SRB	100 µg/mL, 48 h	–	inhibition	71.5%
O=C(N1CCCC1)n1cc(-c2ccc(-c3ccccc3)cc2)nn1	mouse T-cells	N-terminal labeled proteins, N-terminal enrichment proteomics, item: ARHGEF2	1 nM, 6 h	baseline: DMSO	SILAC ratio	1.18 ± 0.13
COc1cc(CNC(=O)C[C@H](C)CCC=C(C)C)ccc1OCc1cn(-c2ccccc2Cl)nn1	U-251 CNS cancer cells	SRB	10 µM, 48 h	–	growth percent	80.6%
O=C(CCCCC1SCC2NC(=O)NC21)NCCCCC1CN(C(CC2CCCCC2)CN2CCCC2CN2C(=O)C(=O)NCC2Cc2ccccc2)C(=O)C(=O)N1CCc1ccccc1 (stereo not drawn)	WM 266-4	western blot, item: cleaved lamin A/C	100 µM, 24 h	–	lamin A/C cleavage	no effect
COc1cc(CNC(=O)C[C@H](C)CCC=C(C)C)ccc1OCc1cn(-c2ccc(Cl)c(Cl)c2)nn1	U-251 CNS cancer cells	SRB	10 µM, 48 h	–	growth percent	48.2%
O=Cc1c(O)ccc2ccccc12	HUVEC	RNA sequencing, item: CCNE2	75 µM, 24 h	baseline: DMSO	log2 fold change	-3.1
COc1cc(CNC(=O)C[C@H](C)CCC=C(C)C)ccc1OCc1cn(-c2ccc(F)cc2)nn1	SK-MEL-2 melanoma cells	SRB	10 µM, 48 h	–	growth percent	84.6%
CC[C@@]12CC(O)c3[nH]c4ccccc4c3CCN(C[C@H]3O[C@H]31)C2 (stereo partly drawn)	BV-2	NO production	50 µM, 1 h, 24 h stimulation, added: LPS 800 ng/mL	baseline: LPS control	inhibition	64.2 ± 5.4%
COc1cc(CNC(=O)C[C@H](C)CCC=C(C)C)ccc1OCc1cn(-c2cccc([N+](=O)[O-])c2)nn1	SK-MEL-2 melanoma cells	SRB	10 µM, 48 h	–	growth percent	95.9%
COc1ccc2c(c1)/C(=N\Nc1nnc3n1N=C(c1ccccc1)CS3)C(=O)N2	SF-539	cell growth or viability, SRB	10 µM	–	inhibition	15%
COC(=O)c1ccccc1-c1c2ccc(=O)cc-2oc2cc(OCCCCCCCC[P+](c3ccccc3)(c3ccccc3)c3ccccc3)ccc12	HeLa cells	confocal microscopy	added: MitoTracker Deep Red	–	Pearson coefficient	0.884 ± 0.006
COc1cc(CNC(=O)C[C@H](C)CCC=C(C)C)ccc1OCc1cn(-c2cccc(Cl)c2)nn1	U-251 CNS cancer cells	SRB	10 µM, 48 h	–	growth percent	103%
CC(=O)N[C@H](C(=O)N[C@H](C(=O)N[C@@H](CCCNC(=N)N)C(=O)N1Cc2ccccc2C[C@H]1C(=O)N[C@@H](Cc1ccccc1)C(N)=O)C1CCCCC1)C(C)C	MBP-specific BC-3 T cells	Bio-Plex multiplex, item: IL-5	200 µg/mL, 24 h, added: MBP87-99 antigen	–	cytokine level	< 0.3 pg/mL
O=C1NCC(Cc2ccccc2)N(CC2CCCN2CC(CC2CCCCC2)N2CC(Cc3ccc(O)cc3)N(CCc3ccccc3)C(=O)C2=O)C1=O (stereo not drawn)	WM 266-4	RT-PCR	50 µM, 2 h	–	spliced XBP1 share	60 ± 5%
COc1cc(CNC(=O)C[C@H](C)CCC=C(C)C)ccc1OCc1cn(-c2ccccc2)nn1	SK-MEL-2 melanoma cells	SRB	10 µM, 48 h	–	growth percent	91.2%
CCCC(CCC)C(=O)[O][Pt]([NH2])([NH2])([Cl])([Cl])[O]C(=O)C(C)c1ccc(CC(C)C)cc1 (stereo not drawn)	C13 and 2008	cytotoxicity, MTT	–	baseline: IC50 C13 over IC50 2008	resistance factor	1.2
